Results gathered from unrelated publications.
Each numbered part is a random draw from the data of one study; scales do not carry over between parts.

Block 1 — technique: competition protein-binding microarray; molecule type: double-stranded DNA, one strand shown; matrix: in vitro; tested at: 2 µM; added: Pho4 competitor, 0.05 µM; direction: higher = stronger binding
Target: Centromere-binding protein 1, full length, His-tagged (CBF1, Saccharomyces cerevisiae, UniProt P17106, residues 1-351)
Chain of UniProt P17106 (whole entry, looked up): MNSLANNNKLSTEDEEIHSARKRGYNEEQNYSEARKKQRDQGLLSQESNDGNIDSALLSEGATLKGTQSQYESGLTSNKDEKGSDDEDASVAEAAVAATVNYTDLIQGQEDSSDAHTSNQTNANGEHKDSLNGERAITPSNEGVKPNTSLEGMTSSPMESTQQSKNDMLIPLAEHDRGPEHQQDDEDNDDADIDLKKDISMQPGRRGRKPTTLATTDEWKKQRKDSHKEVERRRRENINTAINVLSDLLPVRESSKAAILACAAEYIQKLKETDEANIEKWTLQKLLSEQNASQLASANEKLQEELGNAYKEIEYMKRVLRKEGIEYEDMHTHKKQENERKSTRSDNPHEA
Notes: whole 60-bp probe, lowest competitor level
Oligonucleotide | fluorescence intensity [a.u.]
GCGGTCGGTAAATTTTTCGTGGGTATCTTTGAATCTGTCTTGATTCGCTTGACGCTGCTG | 75.8
TGCGCAACAACTTGTCACACTACTTTATGTCTAGAAGTCTTGATTCGCTTGACGCTGCTG | 105
CAGATGTTCGTGTAATGGTACCCGACACTCGATGAGGTCTTGATTCGCTTGACGCTGCTG | 61.4

Block 2 — technique: protein binding microarray; molecule type: double-stranded DNA, one strand shown; matrix: in vitro; tested at: not given; baseline: not given; direction: higher = stronger binding
Target: Histone acetyltransferase KAT6A, winged helix 2, GST fusion (KAT6A, Homo sapiens, UniProt Q92794, residues 85-181)
Notes: 8-mer, flanks averaged, mean of 2 arrays, mostly near background
Target sequence (chain): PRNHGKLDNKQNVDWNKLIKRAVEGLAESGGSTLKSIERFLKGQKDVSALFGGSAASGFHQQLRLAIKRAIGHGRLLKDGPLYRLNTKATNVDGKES
Oligonucleotide | E-score
CCTCCATA | 0.00647
CCAGAACG | 0.0983
TACCGCGA | 0.17
ACCACAAC | 0.0294

Block 3 — technique: RNAcompete; molecule type: RNA; matrix: in vitro; tested at: 20 nM; notes: 7-mer, probes averaged, single round; baseline: mean of 7-mers; direction: higher = stronger binding
Target: PABPC1L2, full length, GST fusion (mouse, UniProt A0ABA7IW68)
Residues (chain): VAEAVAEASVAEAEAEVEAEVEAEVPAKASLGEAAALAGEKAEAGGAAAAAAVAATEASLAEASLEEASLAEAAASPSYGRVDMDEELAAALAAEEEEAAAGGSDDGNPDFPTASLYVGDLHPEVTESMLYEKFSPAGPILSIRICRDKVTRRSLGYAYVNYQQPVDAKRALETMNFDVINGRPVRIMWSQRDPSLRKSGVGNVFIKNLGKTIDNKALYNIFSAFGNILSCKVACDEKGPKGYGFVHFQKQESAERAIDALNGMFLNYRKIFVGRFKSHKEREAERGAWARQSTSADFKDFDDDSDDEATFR
Oligonucleotide | 7-mer Z-score
GCGUGCA | -0.148
UGGUCCG | -0.128
GACAUCC | -0.204

Single results of other studies
Molecule | target | test | test system | conditions | how to read | endpoint | value
PhoQ, residues 284 288 289 292 302 303 AANNSF | PhoP, residues 12 14 15 18 19 NYFRM (Escherichia coli, UniProt P23836) | Sort-seq, refers to: YFP reporter | E. coli | PhoQ-PhoP variant library, added: 10 µM Mg2+ | baseline: high Mg2+ state, higher = stronger signaling | fold induction | 1.8

Repeated from above (block 2):
Oligonucleotide | E-score
CCAGAACG | 0.0983
